Assay results gathered from unrelated publications.
Numbered parts are unrelated; each lists some results of a single study.

Block 1
Target: Phosphate system positive regulatory protein PHO4, full length, GST-tagged (PHO4, Saccharomyces cerevisiae, UniProt P07270, residues 1-312)
Method: competition protein-binding microarray
Molecule type: double-stranded DNA, one strand shown
Matrix: in vitro
Concentration: 2 µM
Notes: whole 60-bp probe, lowest competitor level
Together with: Cbf1 competitor, 0.05 µM
Direction: higher = stronger binding
Target sequence (chain): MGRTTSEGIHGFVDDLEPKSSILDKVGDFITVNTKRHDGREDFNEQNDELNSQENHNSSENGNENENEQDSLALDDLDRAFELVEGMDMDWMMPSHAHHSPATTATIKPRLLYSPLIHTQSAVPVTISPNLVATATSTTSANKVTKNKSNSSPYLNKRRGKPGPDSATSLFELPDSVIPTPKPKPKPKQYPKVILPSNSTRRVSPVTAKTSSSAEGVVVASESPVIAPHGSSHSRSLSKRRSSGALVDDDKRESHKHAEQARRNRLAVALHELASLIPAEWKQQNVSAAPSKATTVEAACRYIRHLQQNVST
For `TGATGATATAAGGTCCACGTGATGGCATTTCAATCTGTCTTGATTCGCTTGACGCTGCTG`, the fluorescence intensity was 15700 a.u.
With `AAGTTACGCGTATATCATGTGACAGTAATTACTATAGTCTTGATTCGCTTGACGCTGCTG` the fluorescence intensity was 7190 a.u.
`GCTGTCTCCCTGCGACATGTGTACAGGTGCCATCATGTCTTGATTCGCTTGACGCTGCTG` has a fluorescence intensity of 8870 a.u.
For `CTTTCCCGATCTTCTCACGTGTTTTTAGCACATTTGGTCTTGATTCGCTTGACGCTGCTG`, the fluorescence intensity was 13700 a.u.
For `CGGGGTTAAGTTTTTCACGTGCAGTGCTTGCAGCAGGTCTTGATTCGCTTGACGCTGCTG`, the fluorescence intensity was 12900 a.u.
The fluorescence intensity of `TCCTGAAGGTGTTTGCACGTGTGGACGGCTAGAGAAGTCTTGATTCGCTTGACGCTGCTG` is reported as 17400 a.u.
`CAAACATAAAAGTCGTTCGTGATGGTGAGTTACTTAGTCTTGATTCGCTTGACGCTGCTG` has a fluorescence intensity of 4300 a.u.
For `GAGATTGACCTGTGTCTCGTGCTTTTCTTCCGCCTTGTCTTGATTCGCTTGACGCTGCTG`, the fluorescence intensity was 9490 a.u.
With `TCTCGAAATTTGTCTTTCGTGATGGTTGCACAGTCTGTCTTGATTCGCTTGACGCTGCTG` the fluorescence intensity was 3780 a.u.
The fluorescence intensity of `AGGCCAATGCTGCTAAGCGTGCTAAAGCCAAGGCCCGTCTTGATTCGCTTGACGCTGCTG` is reported as 7270 a.u.
`CTTCTGTAAATTTGAGTTGTGGGTGGACGCGCCCCGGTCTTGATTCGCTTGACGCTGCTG` gave a fluorescence intensity of 4270 a.u.
`CTAACGAAGGTTTGAATGGTGGGTGACAAGCCAAGTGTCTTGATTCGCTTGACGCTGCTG` gave a fluorescence intensity of 3450 a.u.
For `ATTTATTTACCCCATCACGTGCAAAAATTGAACCTGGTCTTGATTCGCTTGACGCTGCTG`, the fluorescence intensity was 15300 a.u.
`GTCTGAAGTAAAAAGCACGATGATCGTAGTCCACTTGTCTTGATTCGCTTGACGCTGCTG` gave a fluorescence intensity of 8250 a.u.
`GGTGGTACCTGTGTTAACGTGGGTAGTGTTCCGAAGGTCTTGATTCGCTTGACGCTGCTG` has a fluorescence intensity of 10200 a.u.
`AAATTACTAAGTTGTCACTGGACTTACCCCGTATGAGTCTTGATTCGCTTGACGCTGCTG` has a fluorescence intensity of 3340 a.u.
With `CATCATCATCATCATCCATATCAGTAATAGGTTTTCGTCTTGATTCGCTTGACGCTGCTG` the fluorescence intensity was 3740 a.u.
For `TGCGCAACAACTTTTCACGTGATCTTATGTCTAGAAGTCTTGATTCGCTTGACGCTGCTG`, the fluorescence intensity was 12000 a.u.

Block 2
Target: RING finger protein unkempt homolog, zinc fingers 1-6, GST-SBP tag (UNK, Homo sapiens, UniProt Q9C0B0, residues 30-357)
UniProt Q9C0B0, sequence (30-357, looked up): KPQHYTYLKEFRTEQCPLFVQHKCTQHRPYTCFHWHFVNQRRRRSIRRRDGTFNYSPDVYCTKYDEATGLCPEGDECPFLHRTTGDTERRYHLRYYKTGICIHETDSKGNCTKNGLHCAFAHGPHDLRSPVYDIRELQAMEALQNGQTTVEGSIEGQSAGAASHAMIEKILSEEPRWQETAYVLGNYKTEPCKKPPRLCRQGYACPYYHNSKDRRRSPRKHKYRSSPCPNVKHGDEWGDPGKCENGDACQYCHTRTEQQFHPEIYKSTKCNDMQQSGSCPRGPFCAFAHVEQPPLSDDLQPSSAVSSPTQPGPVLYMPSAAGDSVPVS
Method: RNA Bind-n-Seq
Molecule type: RNA
Matrix: in vitro
Concentration: not given
Notes: RNA with constant flanks, human and mouse sites, ends assumed
Relative to: input RNA pool
Direction: higher = stronger binding
The bound/input enrichment of `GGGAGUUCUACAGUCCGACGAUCCCCAGUUGUGACAUGAUGGAACUAAGGCGCCGUUAUCAAAAUUUGUAUAUACCUAGUGACUUUUUUGAUGCUCAAUUUACAUGGGUGGAUGCUUUCCCUUUGUCAAGACCAUUUCAGCUGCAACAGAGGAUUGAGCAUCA` is reported as 11.3 ratio.
With `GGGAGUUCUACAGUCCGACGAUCGGACUGCAGAAUGGCUCAGACUUGCAGUUCAUCGAAAUGCAGAGAGAUGCCAAUAGACAAAUUAGCGAAUACAAAUUUAAGCUUUCAAAAGCAGAACAGGAUAUAACUACCUUGGAGCAACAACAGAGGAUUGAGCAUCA` the bound/input enrichment was 22.3 ratio.
The bound/input enrichment of `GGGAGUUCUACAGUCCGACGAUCUCAAUAACCUUUUCAGAUGAAAAUGAUGAUCAGGAUUUUGAAUUAUGGGAUGAUGUAGGAUUAAACAUUCCCAAACCCCCAGACUUGUUACAACUUUACCGAGACUUUGGAAAUCAUCAACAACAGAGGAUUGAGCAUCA` is reported as 0.145 ratio.
With `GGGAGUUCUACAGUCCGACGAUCUGUGUGAUUUGUGACUCCUAUGUGCGUCCCUGCACUCUGGUGCGCAUAUGUGAUGAGUGUAACUAUGGAUCUUACCAGGGGCGCUGUGUGAUCUGUGGAGGACCUGGGGUCUCUGAUGCCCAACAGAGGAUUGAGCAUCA` the bound/input enrichment was 0.327 ratio.
`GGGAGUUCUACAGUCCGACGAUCAUGCUCCGCCAGAUCAUCGGUCAGGCCAAGAAGCAUCCGAGCUUGAUCCCCCUCUUUGUAUUUAUUGGAACUGGAGCUACUGGAGCAACACUGUAUCUCUUGCGUCUGGCAUUGUUCAAUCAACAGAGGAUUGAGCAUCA` has a bound/input enrichment of 0.121 ratio.
`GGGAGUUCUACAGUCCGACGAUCGCCUUUCUUGUUUUUAGUUUUAUAUUCUUUUUCUAUUAUUUAAAGAACCUCAGAGACUUUGUAAAUAUCGUUCGUAUCUUUCCAGUGAGUUAUUGGGCAGGAACGGUUGUCUUUGAGUAGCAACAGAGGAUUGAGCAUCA` gave a bound/input enrichment of 48.8 ratio.
`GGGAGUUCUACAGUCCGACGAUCGAGGCCCUGGCCAGCCCCCAGAUCGUAGCAUCGUUCACCUCUCAGUCUGUGGAUCAGUCUAAAGUGUUUGUGAAGGUGUUUACUGAAAUCGACCGGAUGCCCCAGCUCCUUGCAUACUACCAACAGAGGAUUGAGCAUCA` has a bound/input enrichment of 0.213 ratio.
`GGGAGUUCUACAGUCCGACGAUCUGCUUUAUGUGGUAGAAAGCAGAUUUAUGGUUUAAUACUUGUGUCUUCAUGGCACCUCGUUAGUUUCCACAGUAAAAUGAUAUUUGGUUGCAGGAAAGGCUCCUGCAUCUGGUACAUGGACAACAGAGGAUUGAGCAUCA` has a bound/input enrichment of 0.633 ratio.

Block 3
Target: RNA binding protein fox-1 homolog 2, RRM domain, GST-SBP tag (RBFOX2, Homo sapiens, UniProt O43251-10, residues 100-194)
Method: RNA Bind-n-Seq
Molecule type: RNA
Matrix: in vitro
Concentration: 365 nM
Notes: natural RNA segment, single round, ends assumed
Relative to: no-protein control
Direction: higher = stronger binding
For `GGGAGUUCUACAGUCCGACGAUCUGAUAACCAAAUAGUAAUAUGCCAGUUCUUUCUUCUUUUUUUAGCUUCAGUAGUAGCUAAGCCAUUAAUACAGUUUGCAUCAAUUUCCCCAUUUAUUUAUAAUCAGCCUUUGGAAUUCUCGGGUGCCAA`, “RBNS enrichment (R)” read 0.941.
`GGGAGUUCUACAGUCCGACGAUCAUUAUUCCUGCUCGCCAGUGAGAGGCGUUUAAGUCGCGCUGUGCAUCGUACCUUCAGUUUAGGCUGUUUUCAUGACCUCACAUCUGUGUAGCACAAAGGGUGUUAUCUUCUGGAAUUCUCGGGUGCCAA`: “RBNS enrichment (R)” 0.626.
Under “RBNS enrichment (R)”, `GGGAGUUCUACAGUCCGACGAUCUAUUUUACAUUAAAGCUUAUUUUGGGGAGAUAUGAAGGUCAUCUUCAUAAAUACAUAACAACCCUCAAAAGUAUAUAGGUACUUUGUCUGAGAAACAUUGAAAGCAGGUUUGGAAUUCUCGGGUGCCAA` is recorded as 0.408.
Under “RBNS enrichment (R)”, `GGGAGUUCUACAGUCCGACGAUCGACCAAAAGUUACAUGUUUGCACCUUUCUAGUUGAAAAUAAAGUAUAUAUAUAUUUUUUAUAUGAAAGGCUUGGCUGUUCAUUCUUGUAAACUUUUCUUGGUUUUCCCGGUGGAAUUCUCGGGUGCCAA` is recorded as 1.13.
For `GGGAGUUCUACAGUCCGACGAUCAAAAAAACACUUCAACUCCCUCCCCCAUUUAGAUUAUUUAUUAACAUAUUUUAAAAAUCAGAUGAGUUCUAUAAAUAAUUUAGAGAAGUGAGAGUAUUUAUUUUUGGCAUUGGAAUUCUCGGGUGCCAA`, “RBNS enrichment (R)” read 0.569.
`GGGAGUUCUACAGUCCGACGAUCAACUGUAAAGUUCAAUUGUGAAAAUGAAUAUCAUGCAAAUAAAUUAUGCAAUUUUUUUUUCAAAGUACUACUGCAUCUUUGAAGUUCUGCCUGGUGAGUAGGACCAGCCUUGGAAUUCUCGGGUGCCAA` — result for “RBNS enrichment (R)”: 1.18.

Block 4
Target: UBE2C UBC core domain (UniProt O00762)
Method: yeast two-hybrid
Matrix: yeast
Notes: mostly zero background
Relative to: not given
Direction: higher = stronger interaction
B1: RNF32 RING domain (UniProt Q9H0A6); chain SLLQGDSVQPCPICKEEFELRPQVLLSCSHVFHKACLQAFEKFTNKKTCPLCRKNQYQTRVIH
B2: RNF14 RING domain (UniProt Q9UBS8); chain IKCFNSKLFLCSICFCEKLGSECMYFLECRHVYCKACLKDYFEIQIRDGQVQCLNCPEPKCPSVATPGQVK
B3: TRIM10 RING domain (UniProt Q9UDY6); chain SVTSLADEVNCPICQGTLREPVTIDCGHNFCRACLTRYCEIPGPDLEESPTCPLCKEPFRPGSFRP
B4: TRIM38 RING domain (UniProt O00635); chain STKKMMEEATCSICLSLMTNPVSINCGHSYCHLCITDFFKNPSQKQLRQETFCCPQCRAPFHMDSLRP
B5: TRIM3 RING domain (UniProt O75382); chain VQPMDKQFLVCSICLDRYQCPKVLPCLHTFCERCLQNYIPAQSLTLSCPVCRQTSILPEQGV
B6: RNF150 RING domain (UniProt Q9ULK6); chain DKETESDFDNCAVCIEGYKPNDVVRILPCRHLFHKSCVDPWLLDHRTCPMCKMNILKALGIP
Residues (chain): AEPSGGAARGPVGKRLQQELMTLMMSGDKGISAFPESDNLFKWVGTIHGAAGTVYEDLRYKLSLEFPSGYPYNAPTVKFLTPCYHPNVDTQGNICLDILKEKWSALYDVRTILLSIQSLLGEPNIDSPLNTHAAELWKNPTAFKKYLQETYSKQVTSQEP
`B1 (RNF32 RING domain)`: “lacZ reporter activity” 0.
For `KRQCSDVDDICSICQAEFQKPILLICQHIFCEECMTLWFNREKTCPLCRTVISDHINKW (RNFT1 RING domain (UniProt Q5M7Z0))`, “lacZ reporter activity” read 0.
`MANWVFCNRCFQPPHRTSCFSLTNCGHVYCDACLGKGKKNECLICKAPCRTVLLSK (RNF212 RING domain (UniProt Q495C1))` — result for “lacZ reporter activity”: 0.
Under “lacZ reporter activity”, `ISNDSETLEECMVCSDMKRDTLFGPCGHIATCSLCSPRVKKCLICKEQVQSRTKIE (MIB1 RING domain (UniProt Q86YT6))` is recorded as 0.
`FLKKLEQSFMCVCCQELVYQPVTTECFHNVCKDCLQRSFKAQVFSCPACRHDLGQNYIMI (UHRF2 RING domain (UniProt Q96PU4))` — result for “lacZ reporter activity”: 0.
Under “lacZ reporter activity”, `B2 (RNF14 RING domain)` is recorded as 0.
`B3 (TRIM10 RING domain)`: “lacZ reporter activity” 0.
For `B4 (TRIM38 RING domain)`, “lacZ reporter activity” read 0.
Under “lacZ reporter activity”, `B5 (TRIM3 RING domain)` is recorded as 0.
`B6 (RNF150 RING domain)` — result for “lacZ reporter activity”: 0.
